Measured values from different studies.
Parts stem from different laboratories: compare values within a part only. Substitutions count along the parent as printed.

Set 1
Target: Histone acetyltransferase KAT6A, both winged helices, GST fusion (KAT6A, Homo sapiens, UniProt Q92794, residues 1-181)
Method: protein binding microarray
Molecule type: double-stranded DNA, one strand shown
Medium: in vitro
Concentration: not given
Notes: 8-mer, flanks averaged, mean of 2 arrays, mostly near background
Relative to: not given
Reading: higher = stronger binding
Target sequence (chain): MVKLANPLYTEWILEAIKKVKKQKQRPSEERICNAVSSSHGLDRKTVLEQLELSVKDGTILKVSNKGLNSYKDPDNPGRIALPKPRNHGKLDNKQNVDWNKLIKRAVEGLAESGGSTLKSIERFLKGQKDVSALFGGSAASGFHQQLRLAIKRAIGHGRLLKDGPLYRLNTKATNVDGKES
The E-score of `CGAAACAC` is reported as 0.113.
`AACGCAAT` gave an E-score of 0.248.
For `ATTAACCC`, the E-score was -0.0167.
`CTCGGAAA` gave an E-score of 0.0846.
With `ACAACCTA` the E-score was -0.148.
The E-score of `CCGTAGAA` is reported as 0.11.
The E-score of `AAATGCGG` is reported as 0.0991.
`CAACGAAA` gave an E-score of -0.0089.
With `CCCAGCAC` the E-score was -0.00827.
The E-score of `CCACGGAA` is reported as 0.298.
For `CTTGTCGC`, the E-score was 0.136.
`AACCAGGA` gave an E-score of -0.0124.
`ACCTCTTG` gave an E-score of -0.131.
The E-score of `AGGGTCTA` is reported as -0.0685.

Set 2
Target: CCNB1, cyclin fold, Cln2 fusion (human)
Method: yeast growth competition, sequencing
Medium: yeast
Notes: weak parent motif
Relative to: not given
Reading: higher = stronger binding
Parent: CDKN1A docking peptide (human); SKACRRLFGPVDS
For `SKACRILFGPVDS [R6I]`, “normalised enrichment score” read -0.0859.
`SKACRRLFWPVDS [G9W]`: “normalised enrichment score” 0.289.
`SKACRWLFGPVDS [R6W]`: “normalised enrichment score” -0.0763.
`SKACRRLFMPVDS [G9M]` — result for “normalised enrichment score”: 0.378.
For `SKAVRRLFGPVDS [C4V]`, “normalised enrichment score” read 0.452.
For `SKACRRSFGPVDS [L7S]`, “normalised enrichment score” read 0.18.
`SKAYRRLFGPVDS [C4Y]`: “normalised enrichment score” -0.487.
`SKACRRLFGPVFS [D12F]` — result for “normalised enrichment score”: 0.252.
`SKAPRRLFGPVDS [C4P]`: “normalised enrichment score” 0.219.
`SKACGRLFGPVDS [R5G]`: “normalised enrichment score” 0.0384.
`SKACRRKFGPVDS [L7K]`: “normalised enrichment score” 0.505.
`SKACLRLFGPVDS [R5L]` — result for “normalised enrichment score”: 0.153.
For `SKACRRLFGVVDS [P10V]`, “normalised enrichment score” read 0.000629.
`SKACRRLFGPVPS [D12P]`: “normalised enrichment score” 0.342.

Set 3
Target: Interferon regulatory factor 5, full length, phosphomimetic (IRF5, Homo sapiens, UniProt Q13568-2, residues 1-514, K96S/S451D/S453D/S456D/S462D)
Method: protein-binding microarray
Molecule type: double-stranded DNA, one strand shown
Medium: in vitro
Concentration: 250 nM
Notes: 60-bp whole probe
Together with: salmon DNA 0.4 mg/ml
Relative to: random background probes
Reading: higher = stronger binding
Constant ends, left off below: GCCTAGCAC … GTCTTGATTCGCTTGACGCTGCTG
For `GACGGTTCCGGGTTTCGGGACGTGCTA`, the log fluorescence was 2.1 z-score.
With `GACGGTTTCCTATCCCTGACGTGCTAG` the log fluorescence was 0.602 z-score.
`ATTTTTCTAATTTACTTTGGGTGCTAG` gave a log fluorescence of 1.04 z-score.
For `GTGATGTGAGGGGAGAGGGAGTGCTAG`, the log fluorescence was -0.329 z-score.
For `GACGGTCTAGGTATCGGGACGTGCTAG`, the log fluorescence was 0.466 z-score.
`GACGATTCCAGTTTCGAGCCGTGCTAG` gave a log fluorescence of 4.06 z-score.
With `TTAGATCTCAGTATCGTTTAGTGCTAG` the log fluorescence was 2.91 z-score.
`GACGGACTGGACTTTCGCGACGTGCTA` gave a log fluorescence of 0.634 z-score.
`TTAGGTATCCTATTGCTTTAGTGCTAG` gave a log fluorescence of 0.0298 z-score.

Further values, each from its own experiment
`PhoQ, residues 284 288 289 292 302 303 SSTLSG` has a fold induction of 5.26 (PhoP, residues 12 14 15 18 19 STWGI (Escherichia coli, UniProt P23836); Sort-seq, measured: YFP reporter; E. coli; PhoQ-PhoP variant library, together with: 10 µM Mg2+; relative to: high Mg2+ state, higher = stronger signaling).

Some of these lines once more (set 1):
`AACCAGGA` gave an E-score of -0.0124.
`AACGCAAT` gave an E-score of 0.248.
`CTCGGAAA` gave an E-score of 0.0846.
The E-score of `CGAAACAC` is reported as 0.113.
The E-score of `AGGGTCTA` is reported as -0.0685.
